Measurements from different studies.
A part holds a random share of what one study measured.

Set 1 — method: protein-binding microarray; molecule type: double-stranded DNA, one strand shown; matrix: in vitro; concentration: not given; direction: higher = stronger binding
Target: Protein C-ets-1 (ETS1, Homo sapiens, UniProt P14921, residues 1-441, K379A, full length assumed)
Notes: k-mer, scored over probes, only values ≥0.25
Construct (chain): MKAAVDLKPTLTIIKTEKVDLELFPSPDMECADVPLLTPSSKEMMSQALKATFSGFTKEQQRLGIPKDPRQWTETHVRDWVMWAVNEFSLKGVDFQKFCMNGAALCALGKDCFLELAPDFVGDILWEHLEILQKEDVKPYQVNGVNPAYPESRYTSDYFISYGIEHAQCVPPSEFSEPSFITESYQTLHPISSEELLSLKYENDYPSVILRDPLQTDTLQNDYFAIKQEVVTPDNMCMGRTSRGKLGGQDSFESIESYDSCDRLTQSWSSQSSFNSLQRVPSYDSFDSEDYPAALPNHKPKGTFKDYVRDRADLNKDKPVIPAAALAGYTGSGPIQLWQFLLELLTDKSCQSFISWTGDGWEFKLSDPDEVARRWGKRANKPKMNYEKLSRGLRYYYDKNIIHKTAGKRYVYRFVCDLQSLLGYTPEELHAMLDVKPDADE
| Oligonucleotide | E-score |
| --- | --- |
| ACTACAAT | 0.314 |
| TACACACA | 0.291 |
| ACCGGCAT | 0.342 |
| CGGTAAAA | 0.282 |

Set 2 — method: protein-binding microarray; molecule type: double-stranded DNA, one strand shown; matrix: in vitro; concentration: 940 nM top; notes: 60-bp whole probe; together with: salmon DNA 0.4 mg/ml; baseline: random background probes; direction: higher = stronger binding; shared flanks, not repeated: GCCTAGCAC … GTCTTGATTCGCTTGACGCTGCTG
Target: Interferon regulatory factor 5, full length, phosphomimetic (IRF5, Homo sapiens, UniProt Q13568-2, residues 1-514, S451D/S453D/S456D/S462D)
| Oligonucleotide | fitted relative affinity [z-score] |
| --- | --- |
| TCATGATCCATTTTGGTACTGTGCTAG | 0.11 |
| TCATTTTTGGTAATAGTACTGTGCTAG | 0.319 |
| TTAGGACTGGACTATCGTTTAGTGCTA | -0.315 |
| GACGGACTCGACTATCGGGACGTGCTA | -0.12 |
| GTGGTTTTCATTATTGCTTCGTGCTAG | 2.03 |

Set 3 — method: aptamer microarray, sandwich; molecule type: DNA with 2'F-ANA; matrix: in vitro; concentration: 200 nM; together with: Cy3 exosite-II aptamer, 400 nM; direction: higher = stronger binding; oligonucleotide: GGTTGGTGTGGTTGG
Target: Prothrombin, mature alpha-thrombin (F2, Homo sapiens, UniProt P00734)
Notes: whole 15-mer aptamer, many near background
| Modification | mean fluorescence intensity [a.u.] |
| --- | --- |
| 2'F-ANA at 1 2 5 6 8 11 15 | 57.7 |
| 2'F-ANA at 2 5 6 7 8 10 11 12 15 | 50.7 |
| 2'F-ANA at 1 2 4 6 7 8 9 12 | 320 |
| 2'F-ANA at 1 3 4 5 10 11 13 14 15 | 51.5 |
| 2'F-ANA at 2 3 4 8 11 12 13 14 | 378 |
| 2'F-ANA at 1 5 6 7 8 9 10 12 13 15 | 49.9 |

Mixed results
| Substance | target | test | system | conditions | how to read | quantity | result |
| --- | --- | --- | --- | --- | --- | --- | --- |
| PhoQ, residues 284 288 289 292 302 303 NLALSC | PhoP, residues 12 14 15 18 19 LHHVQ (Escherichia coli, UniProt P23836) | Sort-seq, item: YFP reporter | E. coli | PhoQ-PhoP variant library, together with: 10 µM Mg2+ | baseline: high Mg2+ state, higher = stronger signaling | fold induction | 0.638 |

Some of these lines once more (set 2):
| Oligonucleotide | fitted relative affinity [z-score] |
| --- | --- |
| GTGGTTTTCATTATTGCTTCGTGCTAG | 2.03 |
